Experimental data gathered from unrelated publications.
Parts stem from different laboratories: compare values within a part only.

Block 1
Target: Centromere-binding protein 1, full length, His-tagged (CBF1, Saccharomyces cerevisiae, UniProt P17106, residues 1-351)
UniProt P17106, sequence (whole entry, looked up): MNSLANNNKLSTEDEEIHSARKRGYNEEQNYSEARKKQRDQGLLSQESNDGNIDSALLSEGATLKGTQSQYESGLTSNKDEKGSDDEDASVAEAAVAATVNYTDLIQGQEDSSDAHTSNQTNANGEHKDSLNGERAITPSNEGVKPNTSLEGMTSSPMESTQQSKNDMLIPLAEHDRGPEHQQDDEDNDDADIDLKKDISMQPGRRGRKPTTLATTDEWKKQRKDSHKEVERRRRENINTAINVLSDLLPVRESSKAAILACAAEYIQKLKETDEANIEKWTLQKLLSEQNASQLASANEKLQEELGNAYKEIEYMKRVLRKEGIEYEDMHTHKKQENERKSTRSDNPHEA
Method: competition protein-binding microarray
Molecule type: double-stranded DNA, one strand shown
Sample: in vitro
Concentration: 2 µM
Notes: whole 60-bp probe, lowest competitor level
With: Pho4 competitor, 0.05 µM
Direction: higher = stronger binding
Strand	fluorescence intensity [a.u.]
GAACGGATGCCCGAGCCCGTGCCAGCGCCCGAGCCTGTCTTGATTCGCTTGACGCTGCTG	54.3
CACTATGAGGATCAACACGTGAAGAGAGCCTTGAAGGTCTTGATTCGCTTGACGCTGCTG	828
TGCGCAACAACTTGTAGCGTGGGTGTATGTCTAGAAGTCTTGATTCGCTTGACGCTGCTG	71.3
TGCGCAACAACTTTCCACGTGTTTTTATGTCTAGAAGTCTTGATTCGCTTGACGCTGCTG	1000

Block 2
Target: Prothrombin, mature alpha-thrombin (F2, Homo sapiens, UniProt P00734)
Method: aptamer microarray, sandwich
Molecule type: DNA with 2'F-ANA
Sample: in vitro
Concentration: 200 nM
Notes: whole 15-mer aptamer, many near background
With: Cy3 exosite-II aptamer, 400 nM
Direction: higher = stronger binding
Strand: GGTTGGTGTGGTTGG
Modification	mean fluorescence intensity [a.u.]
2'F-ANA at 1 3 5 8 9 10 12 13	46.4
2'F-ANA at 1 2 5 12 14 15	45.1
2'F-ANA at 1 5 6 7 9 11 15	59.1
2'F-ANA at 1 2 5 8 10 11 12 13 14 15	48.9
2'F-ANA at 1 8 9 10 11 12 13	66.2

Block 3
Target: RING finger protein unkempt homolog, zinc fingers 1-6, GST-SBP tag (UNK, Homo sapiens, UniProt Q9C0B0, residues 30-357)
UniProt Q9C0B0, sequence (30-357, looked up): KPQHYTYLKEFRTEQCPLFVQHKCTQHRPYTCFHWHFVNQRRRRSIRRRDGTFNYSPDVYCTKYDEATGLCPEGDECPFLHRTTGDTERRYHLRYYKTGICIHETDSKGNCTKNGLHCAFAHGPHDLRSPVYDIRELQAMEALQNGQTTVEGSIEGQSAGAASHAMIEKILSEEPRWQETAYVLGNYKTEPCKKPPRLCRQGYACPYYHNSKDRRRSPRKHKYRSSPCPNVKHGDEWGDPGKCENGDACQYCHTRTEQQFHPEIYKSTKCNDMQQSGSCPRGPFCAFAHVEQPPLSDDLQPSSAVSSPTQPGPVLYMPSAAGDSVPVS
Method: RNA Bind-n-Seq
Molecule type: RNA
Sample: in vitro
Concentration: not given
Notes: RNA with constant flanks, ends assumed
Relative to: input RNA pool
Direction: higher = stronger binding
Strand	bound/input enrichment [ratio]
GGGAGUUCUACAGUCCGACGAUCAAAGUCCACAGUGCAGUGCCUGUCCAGUGUUCAGUGGAGUUUCUGGCACUGGUACAUCUCAACCGGAUUUCUUUUUAAGAGUACUGUACUGUCUCUUGAAGCCAGUCAGGGACUUUUUAACAACAGAGGAUUGAGCAUCA	0.139
GGGAGUUCUACAGUCCGACGAUCUUUCUUGUUUUUCUUUCUCCCCCCCCCCCCCUUCAGUUAACUACUUUUUAAUUGCAAUUCCCGGUAAUUGUGCAUCGUGAUGUGAUUGCUUGGCUAUUGUCUGAAUAUUUCCUUUUAAUUCAACAGAGGAUUGAGCAUCA	2.04
GGGAGUUCUACAGUCCGACGAUCAAACUCAUCCUUAAAGGGGUCAUACUGCUGAUUGUGGACAAAGCCCUAGAAGAGCCAAAGUACCGCUCACUGUAUGCUCAGCUAUGUCUGCGAUUGGCAGAAGAUGCACCAAACUUUGAUCAACAGAGGAUUGAGCAUCA	0.133

Single results of other studies
Substance	target	assay	system	conditions	how to read	quantity	result
PhoQ, residues 284 288 289 292 302 303 TLASMF	PhoP, residues 12 14 15 18 19 LYHSL (Escherichia coli, UniProt P23836)	Sort-seq, item: YFP reporter	E. coli	PhoQ-PhoP variant library, with: 10 µM Mg2+	relative to: high Mg2+ state, higher = stronger signaling	fold induction	1.1

For quick reference, copied from above (block 3):
Strand	bound/input enrichment [ratio]
GGGAGUUCUACAGUCCGACGAUCAAACUCAUCCUUAAAGGGGUCAUACUGCUGAUUGUGGACAAAGCCCUAGAAGAGCCAAAGUACCGCUCACUGUAUGCUCAGCUAUGUCUGCGAUUGGCAGAAGAUGCACCAAACUUUGAUCAACAGAGGAUUGAGCAUCA	0.133
